Measured values pooled from the literature.
Lines come from different studies, so protocols differ. “And” joins repeats or separate records; there may be more than shown. ± marks the error that the study gave.
PFF0160c E182D: Dihydroorotate dehydrogenase (quinone), mitochondrial (PFF0160c, Plasmodium falciparum, UniProt Q08210, E182D)
ACHE: Acetylcholinesterase (ACHE, Homo sapiens, UniProt P22303)
UniProt A5GZW8, sequence (whole entry, looked up): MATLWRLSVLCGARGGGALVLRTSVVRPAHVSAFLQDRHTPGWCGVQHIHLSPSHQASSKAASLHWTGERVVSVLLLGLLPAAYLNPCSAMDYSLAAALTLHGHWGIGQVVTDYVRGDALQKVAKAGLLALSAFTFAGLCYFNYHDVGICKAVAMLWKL
UniProt P22303, sequence (whole entry, looked up): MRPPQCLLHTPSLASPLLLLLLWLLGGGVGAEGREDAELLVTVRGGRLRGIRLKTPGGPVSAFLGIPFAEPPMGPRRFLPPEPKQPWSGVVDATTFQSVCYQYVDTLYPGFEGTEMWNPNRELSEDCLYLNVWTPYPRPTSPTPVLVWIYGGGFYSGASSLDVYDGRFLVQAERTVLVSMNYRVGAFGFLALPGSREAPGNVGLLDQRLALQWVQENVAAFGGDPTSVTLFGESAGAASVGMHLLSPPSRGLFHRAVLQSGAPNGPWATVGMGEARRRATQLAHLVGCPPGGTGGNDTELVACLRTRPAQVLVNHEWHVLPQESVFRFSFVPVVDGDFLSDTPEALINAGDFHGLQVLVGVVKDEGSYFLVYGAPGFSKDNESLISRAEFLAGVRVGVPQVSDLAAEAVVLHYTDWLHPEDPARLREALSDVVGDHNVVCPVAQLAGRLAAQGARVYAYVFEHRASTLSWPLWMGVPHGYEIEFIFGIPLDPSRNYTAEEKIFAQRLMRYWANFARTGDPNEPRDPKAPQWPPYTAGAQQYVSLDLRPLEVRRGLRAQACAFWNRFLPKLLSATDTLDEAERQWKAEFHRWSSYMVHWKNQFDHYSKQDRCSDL
UniProt D0VWV4, sequence (whole entry, looked up): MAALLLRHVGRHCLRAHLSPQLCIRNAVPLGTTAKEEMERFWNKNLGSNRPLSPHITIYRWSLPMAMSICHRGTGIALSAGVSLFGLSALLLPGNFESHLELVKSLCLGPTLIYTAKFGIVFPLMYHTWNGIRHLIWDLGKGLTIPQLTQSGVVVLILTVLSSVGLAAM
UniProt Q007T0, sequence (whole entry, looked up): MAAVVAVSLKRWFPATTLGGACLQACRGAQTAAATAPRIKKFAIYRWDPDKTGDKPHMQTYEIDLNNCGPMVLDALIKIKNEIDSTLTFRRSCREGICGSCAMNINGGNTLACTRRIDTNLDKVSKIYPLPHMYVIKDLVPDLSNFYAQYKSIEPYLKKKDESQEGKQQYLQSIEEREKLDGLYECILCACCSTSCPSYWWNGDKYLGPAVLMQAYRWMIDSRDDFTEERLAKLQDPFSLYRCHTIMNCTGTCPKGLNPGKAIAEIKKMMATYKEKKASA
UniProt P62937, sequence (whole entry, looked up): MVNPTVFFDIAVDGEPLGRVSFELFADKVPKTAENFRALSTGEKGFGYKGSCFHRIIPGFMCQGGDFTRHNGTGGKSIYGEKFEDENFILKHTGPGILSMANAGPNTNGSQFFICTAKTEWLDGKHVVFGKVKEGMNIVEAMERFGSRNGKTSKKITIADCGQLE
UniProt P12392, sequence (whole entry, looked up): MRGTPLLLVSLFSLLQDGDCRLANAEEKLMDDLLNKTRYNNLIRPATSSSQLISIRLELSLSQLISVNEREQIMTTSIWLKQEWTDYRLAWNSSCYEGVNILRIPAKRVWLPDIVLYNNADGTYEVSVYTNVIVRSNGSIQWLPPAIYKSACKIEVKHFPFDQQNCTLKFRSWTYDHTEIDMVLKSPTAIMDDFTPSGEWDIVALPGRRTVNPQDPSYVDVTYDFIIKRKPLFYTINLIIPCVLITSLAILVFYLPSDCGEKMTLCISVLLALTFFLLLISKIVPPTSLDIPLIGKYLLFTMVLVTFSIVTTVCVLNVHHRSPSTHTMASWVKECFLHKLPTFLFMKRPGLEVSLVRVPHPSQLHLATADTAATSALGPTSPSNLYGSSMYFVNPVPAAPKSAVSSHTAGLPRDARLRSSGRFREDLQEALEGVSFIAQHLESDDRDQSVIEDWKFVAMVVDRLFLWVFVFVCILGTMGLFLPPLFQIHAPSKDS
UniProt Q14004, sequence (whole entry, looked up): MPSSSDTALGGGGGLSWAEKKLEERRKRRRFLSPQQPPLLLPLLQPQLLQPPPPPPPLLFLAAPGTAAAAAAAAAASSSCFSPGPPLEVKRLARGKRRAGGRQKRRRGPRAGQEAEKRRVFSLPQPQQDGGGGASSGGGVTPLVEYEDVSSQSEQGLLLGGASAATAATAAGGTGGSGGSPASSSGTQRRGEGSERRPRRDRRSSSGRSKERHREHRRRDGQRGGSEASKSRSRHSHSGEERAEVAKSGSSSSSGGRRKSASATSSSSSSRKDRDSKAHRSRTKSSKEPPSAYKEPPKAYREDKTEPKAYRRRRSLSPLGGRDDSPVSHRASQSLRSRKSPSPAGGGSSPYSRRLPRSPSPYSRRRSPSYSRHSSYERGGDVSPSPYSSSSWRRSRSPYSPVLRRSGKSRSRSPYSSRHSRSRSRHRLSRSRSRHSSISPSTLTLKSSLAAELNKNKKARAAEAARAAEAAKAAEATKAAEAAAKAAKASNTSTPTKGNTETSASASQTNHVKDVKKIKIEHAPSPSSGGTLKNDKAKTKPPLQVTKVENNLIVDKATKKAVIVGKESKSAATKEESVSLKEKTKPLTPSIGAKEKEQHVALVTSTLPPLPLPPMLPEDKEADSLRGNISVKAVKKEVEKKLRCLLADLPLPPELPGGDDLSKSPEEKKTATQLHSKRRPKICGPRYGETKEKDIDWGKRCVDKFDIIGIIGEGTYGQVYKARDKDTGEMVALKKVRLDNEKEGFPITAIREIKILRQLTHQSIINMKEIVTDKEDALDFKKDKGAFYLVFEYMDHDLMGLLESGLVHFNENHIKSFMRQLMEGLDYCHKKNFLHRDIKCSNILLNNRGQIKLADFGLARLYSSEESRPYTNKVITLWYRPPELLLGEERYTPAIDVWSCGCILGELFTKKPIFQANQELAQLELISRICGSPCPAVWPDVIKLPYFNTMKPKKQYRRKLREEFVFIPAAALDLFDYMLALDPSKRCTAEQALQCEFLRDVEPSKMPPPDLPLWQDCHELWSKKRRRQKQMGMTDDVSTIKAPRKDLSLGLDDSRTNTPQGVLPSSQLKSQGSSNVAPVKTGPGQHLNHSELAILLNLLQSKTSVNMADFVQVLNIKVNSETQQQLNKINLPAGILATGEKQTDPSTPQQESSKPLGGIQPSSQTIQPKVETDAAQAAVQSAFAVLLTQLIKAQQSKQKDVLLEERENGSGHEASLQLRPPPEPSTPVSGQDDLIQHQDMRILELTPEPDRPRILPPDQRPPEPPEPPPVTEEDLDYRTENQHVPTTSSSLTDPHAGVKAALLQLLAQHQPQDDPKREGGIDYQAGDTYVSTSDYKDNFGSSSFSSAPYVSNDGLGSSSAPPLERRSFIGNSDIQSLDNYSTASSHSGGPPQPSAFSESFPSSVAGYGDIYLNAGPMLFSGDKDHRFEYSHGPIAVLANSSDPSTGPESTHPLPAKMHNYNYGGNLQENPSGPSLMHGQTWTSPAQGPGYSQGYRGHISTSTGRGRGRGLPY
UniProt P23979, sequence (whole entry, unmodified, looked up): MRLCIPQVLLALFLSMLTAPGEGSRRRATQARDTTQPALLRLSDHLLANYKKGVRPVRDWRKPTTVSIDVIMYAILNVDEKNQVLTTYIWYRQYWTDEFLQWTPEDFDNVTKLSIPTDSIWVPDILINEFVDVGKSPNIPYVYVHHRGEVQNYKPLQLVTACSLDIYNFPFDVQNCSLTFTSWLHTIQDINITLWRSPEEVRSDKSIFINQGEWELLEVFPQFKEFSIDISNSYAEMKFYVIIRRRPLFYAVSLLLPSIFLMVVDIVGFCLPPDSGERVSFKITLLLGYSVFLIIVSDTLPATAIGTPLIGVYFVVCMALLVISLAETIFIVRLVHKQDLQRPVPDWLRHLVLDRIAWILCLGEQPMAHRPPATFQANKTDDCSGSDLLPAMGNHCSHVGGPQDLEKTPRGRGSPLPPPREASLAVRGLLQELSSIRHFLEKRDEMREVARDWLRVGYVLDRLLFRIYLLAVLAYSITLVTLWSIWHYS
UniProt O43613, sequence (whole entry, looked up): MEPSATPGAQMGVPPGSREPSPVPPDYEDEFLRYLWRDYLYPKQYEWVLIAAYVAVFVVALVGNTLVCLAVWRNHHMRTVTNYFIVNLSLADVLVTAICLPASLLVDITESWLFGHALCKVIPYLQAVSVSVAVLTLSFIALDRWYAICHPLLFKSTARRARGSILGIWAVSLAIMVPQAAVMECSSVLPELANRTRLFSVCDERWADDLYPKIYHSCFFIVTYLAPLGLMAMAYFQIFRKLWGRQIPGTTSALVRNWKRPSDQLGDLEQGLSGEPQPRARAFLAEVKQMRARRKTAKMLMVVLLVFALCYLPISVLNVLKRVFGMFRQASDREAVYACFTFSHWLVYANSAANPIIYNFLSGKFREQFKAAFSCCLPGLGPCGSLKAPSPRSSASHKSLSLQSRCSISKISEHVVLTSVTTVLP
UniProt P04757, sequence (whole entry, looked up): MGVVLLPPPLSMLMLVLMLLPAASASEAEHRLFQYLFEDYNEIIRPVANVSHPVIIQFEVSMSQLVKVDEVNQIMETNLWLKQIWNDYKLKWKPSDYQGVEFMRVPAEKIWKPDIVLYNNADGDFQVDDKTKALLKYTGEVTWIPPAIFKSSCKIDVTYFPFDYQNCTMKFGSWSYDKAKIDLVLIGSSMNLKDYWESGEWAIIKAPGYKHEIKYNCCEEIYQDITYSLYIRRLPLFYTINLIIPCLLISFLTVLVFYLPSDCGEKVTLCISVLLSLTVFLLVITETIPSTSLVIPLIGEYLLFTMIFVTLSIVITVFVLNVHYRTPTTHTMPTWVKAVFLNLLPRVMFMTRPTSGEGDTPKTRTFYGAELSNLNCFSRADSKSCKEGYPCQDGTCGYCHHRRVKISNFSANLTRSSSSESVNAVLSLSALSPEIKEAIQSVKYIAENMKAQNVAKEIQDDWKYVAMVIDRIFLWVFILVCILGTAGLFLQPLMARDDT

SMILES | target | assay | system | setting | scale | endpoint | value
Clc1cc2c(cc1Cl)Oc1cc(Cl)c(Cl)cc1O2 | Uncharacterized protein (Takifugu rubripes, UniProt Q4JHL2) | reporter gene, agonist, dual-luciferase | COS-7 | 24 h | – | EC80 | 1.72 ± 0.87 nM
c1ccc2c3c(ccc2c1)-c1cccc2cccc-3c12 | Aryl hydrocarbon receptor (Danio rerio, UniProt Q9YGV3) | reporter gene, agonist, luciferase reporter | ZF-4 | 4.572 µM | relative to: vehicle control | fold change | 2.58
CC[C@H](C)[C@H](NC(=O)CNC(=O)[C@@H](N)CCCCN)C(=O)N[C@@H](CC(C)C)C(=O)N[C@@H](CCCCN)C(=O)N[C@@H](CCCNC(=N)N)C(=O)N[C@@H](CCC(=O)O)C(=O)N[C@@H](CCCCN)C(=O)N[C@@H](CCCNC(=N)N)C(=O)N[C@@H](CC(C)C)C(=O)N[C@@H](CCCNC(=N)N)C(=O)N[C@@H](CCCNC(=N)N)C(=O)N[C@@H](CCCCN)C(=O)N[C@@H](CC(N)=O)C(=O)N[C@H](C(=O)N[C@@H](Cc1c[nH]cn1)C(=O)N[C@@H](Cc1c[nH]c2ccccc12)C(=O)N1CCC[C@H]1C(=O)N[C@@H](CCC(=O)O)C(=O)N[C@@H](CCC(=O)O)C(=O)NCC(=O)N[C@@H](CCCCN)C(=O)N[C@@H](CC(C)C)C(=O)N[C@@H](CCCNC(=N)N)C(=O)N[C@@H](CCC(=O)O)C(=O)N[C@@H](Cc1ccc(O)cc1)C(=O)N[C@@H](Cc1ccccc1)C(=O)N[C@@H](Cc1ccc(O)cc1)C(=O)N[C@@H](Cc1ccccc1)C(=O)N[C@@H](CCC(=O)O)C(=O)N[C@@H](CC(C)C)C(=O)N[C@@H](CC(=O)O)C(=O)N[C@@H](CCC(=O)O)C(=O)N[C@@H](C)C(=O)N[C@@H](CCC(=O)O)C(=O)N[C@@H](CCCNC(=N)N)C(=O)N[C@H](C(=O)N[C@@H](CC(N)=O)C(=O)N[C@H](C(=O)O)C(C)C)C(C)C)C(C)C | Serine/threonine-protein phosphatase PP1-gamma catalytic subunit (Homo sapiens, UniProt P36873) | binding, ITC | – | 25 °C | – | ΔS | -76.8 ± 31.8 cal/mol/K
NC(C(=O)O)C(O)COC(=O)c1ccc(-c2ccccc2)cc1 (stereo not shown) | SLC1A5 (Homo sapiens, UniProt Q15758) | leak anion current, whole-cell patch clamp | HEK293 transfected | – | relative to: compound over L-serine | apparent affinity ratio | ~35 fold
Cc1cc(Nc2ccc(Cl)c(Cl)c2)n2nc(C)nc2n1 | PFF0160c E182D | enzyme activity, DCIP colorimetric | – | – | relative to: E182D mutant over wild type | IC50 ratio | 9.6
COc1cc(N)c(Cl)cc1C(=O)NC1CN2CCC1CC2 (stereo not shown) | PROKR2 (Homo sapiens, UniProt Q8NFJ6) | β-arrestin recruitment, TANGO luminescence, item: PK2 | – | concentration not given | relative to: basal luminescence | log2 fold change | 0.073
CC[C@@H](C)[C@@H](NC(=O)[C@@H](Cc1ccc(O)cc1)NC(=O)[C@H]1CCCN1C(=O)[C@@H](CCCNC(=N)N)NC(=O)[C@H](N)Cc1c[nH]cn1)C(=O)N[C@H](C)C(=O)N[C@H](Cc1c[nH]cn1)C(=O)N[C@H](CCCNC(=N)N)C(=O)N[C@H](CCCCNC(=O)c1cccc(S(=O)(=O)F)c1)C(=O)N[C@H](Cc1ccc(O)cc1)C(=O)N[C@H](CO)C(=O)N[C@H](Cc1ccccc1)C(N)=O | Transferrin receptor protein 1 (Tfrc, Mus musculus, UniProt Q62351) | flow cytometry | RAW264.7 | 2 h, pH 6, replicate 1, unit not given | relative to: 0 h | surface TFRC expression | 0.728
CN(C(=O)n1cnc(-c2ccc[n+]([O-])c2)c1)C1CCCCC1 | HCRTR1 (Homo sapiens, UniProt O43613) | binding | – | 10 µM | – | inhibition | 0%
CCCCC/C=C\C/C=C\C/C=C\C/C=C\CCCC(=O)NCCO | Trpv1 (Mus musculus, UniProt Q704Y3, N552L) | ion current, agonist, whole-cell patch clamp | – | N552L | – | Hill coefficient | 3.81 ± 0.72
CCN1CCN(Cc2ccc(Nc3nc4ccc(Oc5ccnc(NC(=O)C6CCN(C)CC6)c5)cc4n3C)cc2C(F)(F)F)CC1 | Protein kinase 6 (Plasmodium falciparum, UniProt Q8IDW1) | inhibitor, radiometric, item: autophosphorylation and MBP phosphorylation | – | concentration not given | – | kinase activity | inhibited
CN(C(=O)n1cnc(-c2ccc[n+]([O-])c2)c1)C1CCCCC1 | androgen-induced gene 1 protein (Rattus norvegicus, UniProt F7EZV5) | enzyme activity, ABPP | rat, brain | oral, 30 mg/kg/day, 28 days | relative to: vehicle | fold change | -2.1
O=C1NC(=O)[C@](CNC(=O)c2cnn(-c3ccccc3)n2)(C2CC2)N1 | PLAT (Homo sapiens, UniProt P00750) | inhibitor | – | concentration not given | – | activity | inactive
C[N+](C)(C)[C@@H](Cc1c[nH]c(=S)[nH]1)C(=O)[O-] | Ergothioneine transport permease/ergothioneine binding protein EgtU, substrate-binding domain (egtU, Helicobacter pylori, UniProt B5Z7I3, S297F) | ITC | – | 30 °C, substrate-binding domain | – | Ka | 2.93e+07 ± 2.71e+07 M⁻¹
CC(C)CC(=O)N[C@H](C(=O)N[C@H](C(=O)N[C@@H](CC(C)C)[C@@H](O)CC(=O)N[C@@H](C)C(=O)N[C@@H](CC(C)C)[C@@H](O)CC(=O)O)C(C)C)C(C)C | Cathepsin E (CTSE, Homo sapiens, UniProt P14091) | – | – | – | – | Hill slope | -1.37
COc1cc(Nc2ncc(F)c(Nc3ccc4c(n3)NC(=O)C(C)(C)O4)n2)cc(OC)c1OC | CDKL2 (Homo sapiens, UniProt Q92772) | KINOMEscan | – | 10 µM | – | inhibition | 58%
COc1ccc2[nH]c3c(c2c1)CCN(C)CC3.Cl | Neuronal acetylcholine receptor; alpha3/beta4 (Rattus norvegicus, UniProt P04757+P12392) | ion current, inhibitor, two-electrode voltage clamp | Xenopus laevis oocytes, rat | with: 100 µM acetylcholine | – | Hill coefficient | 1.8 ± 0.2
CC[C@H]1NC(=O)[C@@H]2CSC(=N2)[C@@H](Cc2ccccc2)N(C)C(=O)[C@@H]2CCCN2C(=O)[C@H](C(C)C)N(C)C(=O)[C@H](Cc2ccccc2)OC(=O)[C@H](C)[C@@H](C)NC(=O)[C@@H]([C@@H](C)O)NC(=O)[C@@H](CC(C)C)N(C)C(=O)[C@@H]2CSC1=N2 | Procathepsin L (CTSL, Homo sapiens, UniProt P07711) | – | – | 20 µM | relative to: solvent control | remaining activity | 6%
CN1C2CCCC1CC(NC(=O)c1nn(C)c3ccccc13)C2 (stereo not shown) | Htr3a (Mus musculus, UniProt P23979, W183X) | antagonist, voltage clamp | Xenopus oocytes | – | – | Hill coefficient | -1.6 ± 0.1
O=c1c2ccccc2oc2cc(OCCCCc3ccccc3)ccc12 | ache (Electrophorus electricus, UniProt O42275) | enzyme activity | – | 0.36 µM, with: substrate 0.86 mM | higher = faster reaction | reaction velocity | 0.0011 a.u.

SMILES | target | assay | system | setting | scale | endpoint | value
CCCOc1ccccc1-c1nc2sc3c(c2c(=O)[nH]1)CCN(C)C3 | PFF0160c E182D | enzyme activity, DCIP colorimetric | – | – | relative to: E182D mutant over wild type | IC50 ratio | 1.3
CC1=Cc2ccccc2C12CCN(C1Cc3ccccc3CC1O)CC2 (racemic) | Vesicular acetylcholine transporter (Rattus norvegicus, UniProt Q62666) | – | – | – | relative to: Ki sigma1 over Ki VAChT | selectivity ratio | 16
CN1CCN(c2cc(-c3ccncc3)c(-c3ccc4ccccc4c3)nn2)CC1 | NMUR2 (Homo sapiens, UniProt Q9GZQ4) | agonist, FLIPR | – | 12.5 µM | – | activation | -1.7%
C[C@H]1COCCN1c1nc(NCc2cccnc2C(F)(F)F)c2cccnc2n1 | PTGS2 (Homo sapiens, UniProt P35354) | inhibitor | – | – | – | IC50 | > 100000 nM
CC(CC1c2ccccc2CCc2ccccc21)CN(C)C (stereo not shown) | ACHE | – | biochemical | concentration not given | – | activity class | inactive
C[C@H]1CN(c2n[nH]c3nc(N[C@H]4CC[C@H](NS(=O)(=O)CCC(F)(F)F)CC4)ncc23)CCO1 | STK17B (Homo sapiens, UniProt O94768) | inhibitor, Kinobeads competition profiling | – | 0.16 µM | relative to: vehicle | relative abundance | 1.01
O=C(c1ccc(Cl)cc1)N1CCN2C(=O)N(OC(=O)N3CCOc4ccccc43)C(=O)C2C1 (stereo not shown) | PPIA (Homo sapiens, UniProt P62937) | MS-based ABPP | SW-620 conditioned medium | 10 µM, 1 h, 37 °C | relative to: compound over DMSO, lower = more inhibition | peptide ratio | 1.57 and 0.84
COc1ccc(N2C(=O)N(c3c(C)cccc3Cl)Cc3cnc(Nc4ccc(C5CCN(C)CC5)cc4OC)nc32)nc1 | DYRK2 (Homo sapiens, UniProt Q92630) | kinase activity | – | 0.5 µM | – | inhibition | 4.54%
O=C(Nc1cnccc1Cl)N1CCN(Cc2ccc3c(c2)OC(F)(F)O3)CC1 | KATP channel, hamster | binding | – | 50 µM, with: [3H]glyburide | – | inhibition | 13%
[2H]c1c([2H])c([C@]2([2H])CCCN2C(=O)C(C)(C)Oc2ccc3cn[nH]c3c2)c([2H])c([2H])c1C([2H])([2H])[2H] | CDK13 (Homo sapiens, UniProt Q14004) | KINOMEscan | – | 1 µM | relative to: DMSO control | remaining binding | 68%
O=C(O)CCC(=O)C(=O)O | HIF1AN (Homo sapiens, UniProt Q9NWT6, Q147A) | cosubstrate | – | pH 7.00, 37.0 °C, mutant Q147A, with: CTAD peptide 100 µM, cosubstrate 217 µM | – | Km | 38 ± 8 µM
CC(C)[N+](C)(CCOC(=O)C1c2ccccc2Oc2ccccc21)C(C)C | ACHE | – | biochemical | concentration not given | – | activity class | inactive
COc1c(O)c(Br)c2c3c1-c1cc4c(cc1CC3N(C)CC2)OCO4 (stereo not shown) | ADRA1A (Homo sapiens, UniProt P35348) | calcium flux, antagonist, FLIPR | CHO-K1 | with: norepinephrine | – | apparent Kb | 68 ± 18 nM
Oc1ccc(Cl)cc1Sc1cc(Cl)ccc1O | ACHE | – | biochemical | concentration not given | – | activity class | inactive
Cc1nc(Nc2ccc(S(F)(F)(F)(F)F)cc2)c2c(C)noc2n1 | PFF0160c E182D | enzyme activity, DCIP colorimetric | – | – | relative to: E182D mutant over wild type | IC50 ratio | 7.4
C[N+]1(C)CCN(c2ccccc2)CC1 | CHRNA7 (Homo sapiens, UniProt P36544) | net charge, agonist, two-electrode voltage clamp | Xenopus laevis oocytes | 30 µM, with RIC3 | relative to: acetylcholine 60 µM | response | 90%
CC(NC(=O)c1ccc(-n2cnc3ccccc32)cc1)c1ccc(S(N)(=O)=O)cc1 (stereo not shown) | PFF0160c E182D | enzyme activity, DCIP colorimetric | – | – | relative to: E182D mutant over wild type | IC50 ratio | 0.5
C=C(CN(C(=O)c1c(C(F)F)nn(C)c1F)C1CC1)c1ccc(Cl)cc1Cl | SDHD/SDHC/SDHB (Sus scrofa, UniProt A5GZW8+D0VWV4+Q007T0) | enzyme activity, inhibitor, DCIP reduction | pig | 0.2 µM, with: DCIP 160 µM | – | reaction velocity | 0.0239 µM/s and 0.0214 µM/s and 0.022 µM/s
